Results of several laboratories.
A part holds a random share of what one study measured. Substitutions count along the parent as printed.

Series 1
Target: CCND1, cyclin fold, Cln2 fusion (human)
Technique: yeast growth competition, sequencing
Matrix: yeast
Notes: weak parent motif
Baseline: not given
Direction: higher = stronger binding
Parent: RRM2 docking peptide (human); SKTARRIFQEPTE; partner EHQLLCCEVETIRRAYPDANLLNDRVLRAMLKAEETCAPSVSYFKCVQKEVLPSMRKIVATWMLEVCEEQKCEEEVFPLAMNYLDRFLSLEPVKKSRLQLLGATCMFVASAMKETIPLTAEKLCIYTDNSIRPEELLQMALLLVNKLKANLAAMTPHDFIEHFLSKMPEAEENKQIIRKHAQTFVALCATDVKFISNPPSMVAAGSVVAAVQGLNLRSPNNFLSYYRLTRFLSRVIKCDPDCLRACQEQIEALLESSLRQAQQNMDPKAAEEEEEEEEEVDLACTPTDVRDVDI
Substitution | normalised enrichment score
SKTARRIFQEPTA [E13A] | 0.225
SKTARAIFQEPTE [R6A] | 0.911
AKTARRIFQEPTE [S1A] | 0.198
SKAARRIFQEPTE [T3A] | 0.204
SKTARRIFQAPTE [E10A] | 0.0388
SKTARRIFQEATE [P11A] | 0.181

Series 2
Target: ABI1, truncated, D143A, DHFR fusion (Arabidopsis thaliana)
Technique: DHFR PCA, deep sequencing
Matrix: yeast
Notes: methotrexate growth selection, single substitutions
Together with: (+)-ABA 0.11 µM
Baseline: wild-type fitted maximum
Direction: higher = stronger binding
Parent: PYL1, truncated, DHFR fusion (Arabidopsis thaliana); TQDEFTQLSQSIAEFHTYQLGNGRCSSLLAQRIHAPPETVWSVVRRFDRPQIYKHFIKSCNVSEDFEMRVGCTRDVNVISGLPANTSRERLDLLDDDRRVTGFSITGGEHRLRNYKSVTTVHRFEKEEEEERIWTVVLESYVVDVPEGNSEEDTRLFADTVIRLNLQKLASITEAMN
Substitution | relative binding score [%]
V76W | 3.96
R69I | 28.1
S11T | 38.1
V62W | -10.1
S42F | -3.77
R74E | 2.88
V76G | -1.51
E89Q | -0.697
D153M | -3.81
K126A | 60.5

Series 3
Target: CEP164, C-terminal peptide (human)
Technique: DHFR complementation, deep sequencing
Matrix: yeast
Notes: single substitutions, model-inferred values
Baseline: wild type
Direction: higher = weaker binding
Parent: PDZK1, PDZ domain 2 (human); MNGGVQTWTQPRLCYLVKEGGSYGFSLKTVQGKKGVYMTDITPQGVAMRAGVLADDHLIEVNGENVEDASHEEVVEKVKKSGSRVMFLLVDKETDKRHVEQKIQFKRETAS; partner HNRVKVYRF
Substitution | binding free energy change [kcal/mol]
K34Y | 0.479
R97M | -0.157
G51M | 1.04
W8H | -0.283
L88I | 0.704
Q10H | 0.0127
Q101N | -0.123
K34G | 0.326
K79T | 0.261
G45D | 2.03

Single results of other studies
Substance | target | assay | system | conditions | scale | quantity | result
PhoQ, residues 284 288 289 292 302 303 HSSMNL | PhoP, residues 12 14 15 18 19 TTLRV (Escherichia coli, UniProt P23836) | Sort-seq, item: YFP reporter | E. coli | PhoQ-PhoP variant library, together with: 10 µM Mg2+ | baseline: high Mg2+ state, higher = stronger signaling | fold induction | 5.94

Excerpt of the above (series 3):
Substitution | binding free energy change [kcal/mol]
Q101N | -0.123
W8H | -0.283
K34G | 0.326
G45D | 2.03
